Experimental data gathered from unrelated publications.
Numbers after ± are the reported error.

| SMILES | system | setting | tissue uptake [%ID/g] |
| --- | --- | --- | --- |
| CC(C)C[C@H](NC(=O)[C@H](Cc1ccc(O)cc1)NC(=O)[C@@H](CCCNC(=N)N)NC(=O)[C@@H](CO)NC(=O)[C@H](Cc1ccccc1)NC(=O)[C@H](CC1CCCCC1)NC(=O)[C@H](CC(=O)O)NC(=O)CN1CCCN2CCN(CCCN(CC(=O)O)CC2)CC1)C(=O)N[C@@H](Cc1c[nH]c2ccccc12)C(=O)N[C@@H](CO)C(=O)O [copper-64 labelled] | female NMRI nude mice, stomach | 22 h p.i. | 1.1 ± 0.4 |
| CCCC[C@H](NC(=O)CNC(=O)CNC(=O)CN1CCN(CC(=O)O)CCN(CC(=O)O)CCN(CC(=O)O)CC1)C(=O)N[C@H]1CC(=O)NCCCC[C@@H](C(N)=O)NC(=O)[C@H](Cc2c[nH]c3ccccc23)NC(=O)[C@H](CCCNC(=N)N)NC(=O)[C@@H](Cc2ccccc2)NC(=O)[C@H](Cc2c[nH]cn2)NC1=O [lutetium-177 labelled] | C57 mouse, female, kidneys | intravenous, 0.037 MBq, 2 h | 7.83 ± 1.38 |
| CC(C)C[C@H](NC(=O)[C@@H](CCCCNC(=O)CCCCCNC(=O)CN1CCN(CC(=O)O)CCN(CC(=O)O)CCN(CC(=O)O)CC1)NC(=O)[C@H](Cc1ccc(O)cc1)NC(=O)[C@H](CO)NC(=O)[C@H](Cc1c[nH]c2ccccc12)NC(=O)[C@H](Cc1cnc[nH]1)NC(=O)[C@@H]1CCC(=O)N1)C(=O)N[C@@H](CCCNC(=N)N)C(=O)N1CCC[C@H]1C(=O)NCC(N)=O [indium-111 labelled] | female athymic nude mouse, kidneys | intravenous, 0.037 MBq, 4 h | 9.28 ± 1.18 |
| N=C(N)NCCC[C@@H]1NC(=O)[C@H](CCCCNC(=O)CC[C@H](NC(=O)CC[C@H](NC(=O)CN2CCN(CC(=O)O)CCN(CC(=O)O)CCN(CC(=O)O)CC2)C(=O)N[C@@H](CCC(=O)NCCCC[C@@H]2NC(=O)[C@@H](Cc3ccccc3)NC(=O)[C@H](CC(=O)O)NC(=O)CNC(=O)[C@H](CCCNC(=N)N)NC2=O)C(=O)NCCCC[C@@H]2NC(=O)[C@@H](Cc3ccccc3)NC(=O)[C@H](CC(=O)O)NC(=O)CNC(=O)[C@H](CCCNC(=N)N)NC2=O)C(=O)NCCCC[C@@H]2NC(=O)[C@@H](Cc3ccccc3)NC(=O)[C@H](CC(=O)O)NC(=O)CNC(=O)[C@H](CCCNC(=N)N)NC2=O)NC(=O)[C@@H](Cc2ccccc2)NC(=O)[C@H](CC(=O)O)NC(=O)CNC1=O [indium-111 labelled] | female athymic nu/nu mice, bone | intravenous, 72 h | 0.75 ± 0.09 |
| CCCC[C@H](NC(=O)COCCOCCNC(=O)CN1CCN(CC(=O)O)CCN(CC(=O)O)CC1)C(=O)N[C@H]1CC(=O)NCCCC[C@@H](C(N)=O)NC(=O)[C@H](Cc2c[nH]c3ccccc23)NC(=O)[C@H](CCCNC(=N)N)NC(=O)[C@@H](Cc2ccccc2)NC(=O)[C@H](Cc2c[nH]cn2)NC1=O [copper-64 labelled] | C57 mice, pancreas | intravenous, 0.37 MBq, 24 h | 0.01 ± 0.01 |
| N=C(N)NCCC[C@@H]1NC(=O)[C@H](CCCCNC(=O)CNC(=O)CNC(=O)CNC(=O)CC[C@H](NC(=O)CNC(=O)CNC(=O)CNC(=O)CN2CCN(CC(=O)O)CCN(CC(=O)O)CCN(CC(=O)O)CC2)C(=O)NCC(=O)NCC(=O)NCC(=O)NCCCC[C@@H]2NC(=O)[C@@H](Cc3ccccc3)NC(=O)[C@H](CC(=O)O)NC(=O)CNC(=O)[C@H](CCCNC(=N)N)NC2=O)NC(=O)[C@@H](Cc2ccccc2)NC(=O)[C@H](CC(=O)O)NC(=O)CNC1=O [indium-111 labelled] | female athymic nu/nu mice, spleen | intravenous, 111 kBq, 1 h | 1.36 ± 0.13 |
| CCCC[C@H](NC(=O)CCCCCCCNC(=O)CN1CCN(CC(=O)O)CCN(CC(=O)O)CC1)C(=O)N[C@H]1CC(=O)NCCCC[C@@H](C(N)=O)NC(=O)[C@H](Cc2c[nH]c3ccccc23)NC(=O)[C@H](CCCNC(=N)N)NC(=O)[C@@H](Cc2ccccc2)NC(=O)[C@H](Cc2c[nH]cn2)NC1=O [copper-64 labelled] | C57 mice, blood | intravenous, 0.37 MBq, 24 h | 0.02 ± 0.03 |
| CCCC[C@H](NC(=O)CNC(=O)CNC(=O)CN1CCN(CC(=O)O)CCN(CC(=O)O)CC1)C(=O)N[C@H]1CC(=O)NCCCC[C@@H](C(N)=O)NC(=O)[C@H](Cc2c[nH]c3ccccc23)NC(=O)[C@H](CCCNC(=N)N)NC(=O)[C@@H](Cc2ccccc2)NC(=O)[C@H](Cc2c[nH]cn2)NC1=O [technetium-99m labelled] | C57 mouse, muscle | iv, 0.037 MBq, 0.5 h | 0.19 ± 0.06 |
| N=C(N)NCCC[C@@H]1NC(=O)[C@H](CCCCNC(=O)CNC(=O)CNC(=O)CNC(=O)CC[C@H](NC(=O)CNC(=O)CNC(=O)CNC(=O)CC[C@H](NC(=O)CN2CCN(CC(=O)O)CCN(CC(=O)O)CCN(CC(=O)O)CC2)C(=O)NCC(=O)NCC(=O)NCC(=O)N[C@@H](CCC(=O)NCC(=O)NCC(=O)NCC(=O)NCCCC[C@@H]2NC(=O)[C@@H](Cc3ccccc3)NC(=O)[C@H](CC(=O)O)NC(=O)CNC(=O)[C@H](CCCNC(=N)N)NC2=O)C(=O)NCC(=O)NCC(=O)NCC(=O)NCCCC[C@@H]2NC(=O)[C@@H](Cc3ccccc3)NC(=O)[C@H](CC(=O)O)NC(=O)CNC(=O)[C@H](CCCNC(=N)N)NC2=O)C(=O)NCC(=O)NCC(=O)NCC(=O)NCCCC[C@@H]2NC(=O)[C@@H](Cc3ccccc3)NC(=O)[C@H](CC(=O)O)NC(=O)CNC(=O)[C@H](CCCNC(=N)N)NC2=O)NC(=O)[C@@H](Cc2ccccc2)NC(=O)[C@H](CC(=O)O)NC(=O)CNC1=O [indium-111 labelled] | female athymic nu/nu mice, U87MG tumour | intravenous, 111 kBq, 1 h | 11.4 ± 2.46 |

A few entries again:
| SMILES | system | setting | tissue uptake [%ID/g] |
| --- | --- | --- | --- |
| CCCC[C@H](NC(=O)CNC(=O)CNC(=O)CN1CCN(CC(=O)O)CCN(CC(=O)O)CC1)C(=O)N[C@H]1CC(=O)NCCCC[C@@H](C(N)=O)NC(=O)[C@H](Cc2c[nH]c3ccccc23)NC(=O)[C@H](CCCNC(=N)N)NC(=O)[C@@H](Cc2ccccc2)NC(=O)[C@H](Cc2c[nH]cn2)NC1=O [technetium-99m labelled] | C57 mouse, muscle | iv, 0.037 MBq, 0.5 h | 0.19 ± 0.06 |
